Published values pooled from the literature.
Every numbered part comes from another study and shows a few of its results, in no order. Changes are numbered by the printed parent chain.

Block 1 — technique: RNA Bind-n-Seq; molecule type: RNA; medium: in vitro; concentration: not given; relative to: input RNA pool; reading: higher = stronger binding; endpoint: bound/input enrichment
Target: RING finger protein unkempt homolog, zinc fingers 1-6, GST-SBP tag (UNK, Homo sapiens, UniProt Q9C0B0, residues 30-357)
UniProt Q9C0B0, sequence (30-357, looked up): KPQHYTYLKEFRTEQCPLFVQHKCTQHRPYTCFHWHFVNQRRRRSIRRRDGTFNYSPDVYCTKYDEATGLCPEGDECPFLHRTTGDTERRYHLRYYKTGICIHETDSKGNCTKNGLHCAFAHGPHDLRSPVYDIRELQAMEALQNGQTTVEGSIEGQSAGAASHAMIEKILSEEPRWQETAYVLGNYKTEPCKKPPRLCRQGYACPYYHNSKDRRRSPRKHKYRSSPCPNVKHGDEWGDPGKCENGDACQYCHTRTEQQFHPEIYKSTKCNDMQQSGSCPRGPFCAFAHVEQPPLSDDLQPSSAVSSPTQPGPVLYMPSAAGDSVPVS
Setting: RNA with constant flanks, human and mouse sites, ends assumed
Constant ends, left off below: GGGAGUUCUACAGUCCGACGAUC … CAACAGAGGAUUGAGCAUCA
UAACGUUACAUAUCAUAGUGAAUGGUUUCCCCAGUGUAUAUGAAUGUUUUAAGUGUCUCCAAUAGCUUAUGCAGUCUAGGAGCUUUCCAAUACUCAUUUAAUUAAGAUUUAAUCAUUUGC: 1.22 ratio
UUCAUCUCUCAUUUUAUAUGUCCAGAAAUGGCUUUGAAUUUUAAGCAAUUACUAGUUUUAAUUAGCUCUGCCCUCAUGAAGUAUUAUUAUAAUUCACCAUAAACAGCUAUCUGUCUGAAU: 28.8 ratio
CUCUCUCCAUACCAUCAGUUUCUCAGUUCCAGAAGUUAUACCUUUAUUUUGAGCUGUGUAUAGGUAGAAUAAAAAAUUCCUUUCAUAUCGUUAUUGUACAAAAAGUAAAGAGUAUCCUAA: 0.848 ratio
CCAGAUACAAUAGAAAGUGAACCCAGCACAGCAGAUACCGUUGUUCCAAUCACUUGUGCUAUAGAUUCUACAGCUGAUCCACAGGUUAGCUUCAACUCUAAUUACAUUGAUAUAGAAAGU: 0.729 ratio
UUCCUGCUCGCAUGCUGGACUUUUGGCACAUCUGUCCCCAGUGGCCUCUUCGUGCCUUCCCUGCUGUGUGGAGCAGCUUUUGGACGUUUAGUUGCCAAUGUCCUGAAAAGCUACAUUGGA: 0.113 ratio
CCCACUGUCCCAUAUAUAUUCCUUUGUUGUUCUUGAGUGGACCAGGUUACACACUUAAACUUAGGGAGGUAAGACAAGAGUCCCAGUUAAAAUAUCUAUGUCCUAGAGAAGCAUCCACUU: 0.734 ratio
UUAGGACUUAGCUGCUUUGUUAAUAGAGGUCUUAACUUGAAUAUUUAGAAAUAAUCAGAAAAAUUAUUUUUUGGUAUUGAAGAUGUAUUUUGGAAAUGGGUUUUAAAGUACCUACUUAAG: 1.41 ratio
AGGGCCUUGCAGAAACUACAGGAGAACACCUAUAUAAAACUUGUGAUUUCCAACUUGGAGAAUAGUCUUCUUCAAUUCCAUAUUCAUGCGUGGCAUGAAUCAUCUCAUAUAUUCUUAUGA: 0.126 ratio

Block 2 — technique: protein binding microarray; molecule type: double-stranded DNA, one strand shown; medium: in vitro; concentration: not given; relative to: not given; reading: higher = stronger binding; endpoint: E-score
Target: Histone acetyltransferase KAT6A, winged helix 2, GST fusion (KAT6A, Homo sapiens, UniProt Q92794, residues 85-181)
Setting: 8-mer, flanks averaged, mean of 2 arrays, mostly near background
Target sequence (chain): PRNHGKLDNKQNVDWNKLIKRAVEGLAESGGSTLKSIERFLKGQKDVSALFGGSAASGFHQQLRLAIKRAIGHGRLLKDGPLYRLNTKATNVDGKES
AAAACCCC: -0.159
GCGCGTAC: 0.0754
CCATTCAC: -0.00447
ATAACTAA: 0.0244
ACCGGCCG: 0.246
TACAAAGA: 0.115
CACCCAAG: 0.145
AACCCTGA: -0.0652
AGTAAGCA: -0.0817
GACTTGGC: -0.0909
CTCTATCC: -0.0618
CCCTGATC: -0.0117
CTCTGTAC: -0.099
CAAATGGG: -0.0571
ATCTCAAC: -0.0454
GAGAACTA: -0.11
CCCTGGGC: 0.089
CGACCGCC: 0.091
ACAATGCG: -0.00445
CAAGTCAC: -0.0906
AAAACTAT: -0.13
CGCTTGGC: 0.127
AATGCTCG: 0.0794
CTGTCTGC: 0.0534
AAGACACG: 0.0494

Block 3 — technique: DHFR PCA, deep sequencing; medium: yeast; together with: (+)-ABA 0.0091 µM; relative to: wild-type fitted maximum; reading: higher = stronger binding; endpoint: relative binding score
Target: ABI1, truncated, D143A, DHFR fusion (Arabidopsis thaliana)
Setting: methotrexate growth selection, single substitutions
Parent: PYL1, truncated, DHFR fusion (Arabidopsis thaliana); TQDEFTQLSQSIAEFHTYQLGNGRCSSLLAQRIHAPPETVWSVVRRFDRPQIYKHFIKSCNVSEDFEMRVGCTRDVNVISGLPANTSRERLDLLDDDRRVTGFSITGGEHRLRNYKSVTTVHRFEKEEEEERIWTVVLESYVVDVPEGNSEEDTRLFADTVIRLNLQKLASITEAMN; partner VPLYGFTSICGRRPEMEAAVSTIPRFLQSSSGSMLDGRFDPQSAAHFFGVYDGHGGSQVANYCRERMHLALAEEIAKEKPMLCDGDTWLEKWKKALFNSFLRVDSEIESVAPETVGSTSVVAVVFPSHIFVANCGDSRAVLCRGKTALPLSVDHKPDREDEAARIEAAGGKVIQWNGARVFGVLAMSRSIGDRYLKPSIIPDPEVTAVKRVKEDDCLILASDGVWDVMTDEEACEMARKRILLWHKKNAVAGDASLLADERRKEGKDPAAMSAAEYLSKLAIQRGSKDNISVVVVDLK
F15M: 1.22%
I79E: 13.9%
K116E: -1.58%
E152N: 10.5%
S150P: 4.05%
S80A: 12.8%
V62M: 3%
S171R: 45.1%
G71C: 0.0122%
N149I: 41.1%
K126Y: 20.6%
S87F: 29.5%
I79P: -0.279%
T73H: 21.5%

Block 4 — target: CCNA1, cyclin fold, Cln2 fusion (human); technique: yeast growth competition, sequencing; medium: yeast; setting: weak parent motif; relative to: not given; reading: higher = stronger binding; endpoint: normalised enrichment score
Parent: TICRR docking peptide (human); TKVRRNLFNQELL; partner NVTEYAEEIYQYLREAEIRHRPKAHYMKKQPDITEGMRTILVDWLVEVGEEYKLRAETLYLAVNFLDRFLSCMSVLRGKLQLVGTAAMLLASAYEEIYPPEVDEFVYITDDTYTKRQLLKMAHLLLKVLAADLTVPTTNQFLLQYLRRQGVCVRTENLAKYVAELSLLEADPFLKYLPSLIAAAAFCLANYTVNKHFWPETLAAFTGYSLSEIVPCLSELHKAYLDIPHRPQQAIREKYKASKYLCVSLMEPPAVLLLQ
Q10A: 0.349
L13A: 0.841
R5K: 0.217
K2A: 0.74
E11A: 0.317
L7A: 0.286
N9A: 0.419

Other studies, line by line
PhoQ, residues 284 288 289 292 302 303 ALSMDL — fold induction (PhoP, residues 12 14 15 18 19 NMSFL (Escherichia coli, UniProt P23836); Sort-seq, measured: YFP reporter; E. coli; PhoQ-PhoP variant library, together with: 10 µM Mg2+; relative to: high Mg2+ state, higher = stronger signaling): 2.32

A few entries again (block 2):
CCCTGGGC: 0.089
CGACCGCC: 0.091
ACAATGCG: -0.00445
CAAGTCAC: -0.0906
AAAACTAT: -0.13
CGCTTGGC: 0.127
AATGCTCG: 0.0794
